{"data": "Experimental data of several laboratories", "target": "Serine/threonine-protein kinase PAK 5 (PAK5, Homo sapiens, UniProt Q9P286)", "note": "Lines come from different studies, so protocols differ."}
{"SMILES": "C=CC(=O)N1CCc2ccc(-n3c(=O)ccc4cnc5ccc(-c6cnn(C)c6)cc5c43)cc21", "test": "KINOMEscan", "setting": "1 µM", "how to read": "reference: DMSO control", "endpoint": "remaining binding", "value": "91%"}
{"SMILES": "Cc1cccc(O[C@H]2CCC[C@@H](C(C)CNCc3ccncc3)C2)c1 (relative stereo)", "test": "enzyme activity, inhibitor", "setting": "10 µM", "endpoint": "inhibition", "value": "-5%"}
{"SMILES": "CNC(=O)C[C@H](Cc1ccc(C#N)cc1)NC(=O)c1cc(-c2ccc(CN[C@H](C)c3ccc(C)cc3)o2)ccc1Cl", "test": "enzyme activity, inhibitor", "setting": "1 µM", "endpoint": "activity vs control", "value": "104%"}
{"SMILES": "NC(=O)[C@@H](O)C[C@H]1CCc2sc3ncnc(O[C@H]4CC[C@H](N5CCOCC5)CC4)c3c21", "test": "enzyme activity, inhibitor", "setting": "10 µM", "endpoint": "inhibition", "value": "5%"}
{"SMILES": "Nc1ncc2c(n1)-c1c([nH]c3ccc(C4=CCOCC4)cc13)CCC2", "test": "binding, competition with immobilised ligand", "setting": "1 µM", "endpoint": "remaining binding", "value": "74%"}
{"SMILES": "CN1CCN(Cc2ccc(-c3ccc(CO[C@H]4CCC[C@@H]4NC(=O)c4cc(-c5cnn(C)c5)cnc4N)cc3)cc2)CC1", "test": "enzyme activity, inhibitor", "setting": "0.1 µM", "endpoint": "inhibition", "value": "2%"}
{"SMILES": "COc1c(Cl)cccc1Nc1c(-c2ccncc2C#C[C@@]2(C)CCCN2C(=O)/C=C/CN(C)C)[nH]c2c1C(=O)NCC2", "test": "cell-free assay, competition with immobilised ligand", "setting": "3 µM", "endpoint": "remaining binding", "value": "70%"}
{"SMILES": "CN1CC[C@@H](COc2cnc(C#N)cc2-c2ccn3nc(NC(=O)C4CC4)cc3c2)C1", "test": "enzyme activity, inhibitor", "setting": "1 µM", "endpoint": "inhibition", "value": "7%"}
{"SMILES": "CNC(=O)C1CCN(c2cc(C)c(F)cc2NC(=O)c2ccc(-c3cc(O)ccc3C)c(C)c2)CC1", "test": "binding, competition with immobilised ligand", "setting": "1 µM", "endpoint": "remaining binding", "value": "100%"}
{"SMILES": "Cc1ccc(-c2c(/C=C(\\C#N)C(=O)NC(C)C)n(CCCO)c3ncnc(N)c23)cc1", "test": "cell-free assay, competition with immobilised ligand", "setting": "1 µM", "endpoint": "remaining binding", "value": "85%"}
{"SMILES": "Cc1cccc(-c2ccc3nc(NC(=O)C4CCCO4)nn3c2)c1 (stereo not shown)", "test": "enzyme activity, Dundee kinase panel", "setting": "10 µM", "endpoint": "remaining activity", "value": "88%"}
{"SMILES": "COc1ccc(NC(=O)Nc2ccc3c(c2)C(=O)N(C(C)CO)CC(C)C(CN(C)Cc2ccc4c(c2)OCO4)O3)cc1 (stereo not shown)", "test": "kinase activity, KinaseProfiler", "setting": "0.03 µM, species human", "how to read": "reference: control", "endpoint": "remaining activity", "value": "107%"}
{"SMILES": "CNC1C[S+]2CC[S+]3CC[S+](C1)[Ru-4]321([N]=C=S)[n]2c3ccc(OC)cc3c3c4c(c5cc(F)c[n+]1c5c32)C(=O)NC4=O (stereo not shown)", "test": "KinomeScan", "setting": "0.1 µM", "how to read": "reference: untreated", "endpoint": "remaining binding", "value": "80%"}
{"SMILES": "Nc1ncc(-c2cc(-c3cnn(CC(F)(F)F)c3)ncc2F)nc1C(=O)NC1CNCC(F)C1 (stereo not shown)", "test": "enzyme activity", "setting": "1 µM", "how to read": "reference: DMSO control", "endpoint": "remaining activity", "value": "93.9%"}
{"SMILES": "CC(C)=CC1OC(C)(C)C2C=C3C(=O)C(Cl)=CC(O)C3C3C(O)C4OC4C(=O)C132 (stereo not shown)", "test": "cell-free assay, competition with immobilised ligand", "setting": "10 µM", "endpoint": "remaining binding", "value": "79%"}
{"SMILES": "C=CC(=O)N1CCCC(n2c(=O)c3ncccc3n(Cc3ccc(Oc4ccccc4)cc3)c2=O)C1 (stereo not shown)", "test": "cell-free assay, competition with immobilised ligand", "setting": "1 µM", "endpoint": "remaining binding", "value": "100%"}
{"SMILES": "Cc1ccc(C)c(-c2ccc3nc(NC(=O)C4CCCCC4)nn3c2)c1", "test": "enzyme activity, Dundee kinase panel", "setting": "10 µM", "endpoint": "remaining activity", "value": "68%"}
{"SMILES": "COc1cc(Nc2nccc(-c3cnn4nc(OC)ccc34)n2)cc(C(F)(F)F)c1", "test": "binding, competition with immobilised ligand", "setting": "1 µM", "endpoint": "remaining binding", "value": "100%"}
{"SMILES": "C=CC(=O)Nc1cccc(-c2cnc3[nH]cc(C(=O)NC(C)(C)C)c3n2)c1", "test": "enzyme activity, inhibitor", "setting": "0.1 µM", "endpoint": "inhibition", "value": "12%"}
{"note": "Excerpt of the above:"}
{"SMILES": "C=CC(=O)N1CCc2ccc(-n3c(=O)ccc4cnc5ccc(-c6cnn(C)c6)cc5c43)cc21", "test": "KINOMEscan", "setting": "1 µM", "how to read": "reference: DMSO control", "endpoint": "remaining binding", "value": "91%"}
